# Measurements gathered from unrelated publications.
# Each line is one published result; not all experiments were run side by side. Numbers after ± are the reported error.
# Chain of UniProt P08069 (whole entry, looked up): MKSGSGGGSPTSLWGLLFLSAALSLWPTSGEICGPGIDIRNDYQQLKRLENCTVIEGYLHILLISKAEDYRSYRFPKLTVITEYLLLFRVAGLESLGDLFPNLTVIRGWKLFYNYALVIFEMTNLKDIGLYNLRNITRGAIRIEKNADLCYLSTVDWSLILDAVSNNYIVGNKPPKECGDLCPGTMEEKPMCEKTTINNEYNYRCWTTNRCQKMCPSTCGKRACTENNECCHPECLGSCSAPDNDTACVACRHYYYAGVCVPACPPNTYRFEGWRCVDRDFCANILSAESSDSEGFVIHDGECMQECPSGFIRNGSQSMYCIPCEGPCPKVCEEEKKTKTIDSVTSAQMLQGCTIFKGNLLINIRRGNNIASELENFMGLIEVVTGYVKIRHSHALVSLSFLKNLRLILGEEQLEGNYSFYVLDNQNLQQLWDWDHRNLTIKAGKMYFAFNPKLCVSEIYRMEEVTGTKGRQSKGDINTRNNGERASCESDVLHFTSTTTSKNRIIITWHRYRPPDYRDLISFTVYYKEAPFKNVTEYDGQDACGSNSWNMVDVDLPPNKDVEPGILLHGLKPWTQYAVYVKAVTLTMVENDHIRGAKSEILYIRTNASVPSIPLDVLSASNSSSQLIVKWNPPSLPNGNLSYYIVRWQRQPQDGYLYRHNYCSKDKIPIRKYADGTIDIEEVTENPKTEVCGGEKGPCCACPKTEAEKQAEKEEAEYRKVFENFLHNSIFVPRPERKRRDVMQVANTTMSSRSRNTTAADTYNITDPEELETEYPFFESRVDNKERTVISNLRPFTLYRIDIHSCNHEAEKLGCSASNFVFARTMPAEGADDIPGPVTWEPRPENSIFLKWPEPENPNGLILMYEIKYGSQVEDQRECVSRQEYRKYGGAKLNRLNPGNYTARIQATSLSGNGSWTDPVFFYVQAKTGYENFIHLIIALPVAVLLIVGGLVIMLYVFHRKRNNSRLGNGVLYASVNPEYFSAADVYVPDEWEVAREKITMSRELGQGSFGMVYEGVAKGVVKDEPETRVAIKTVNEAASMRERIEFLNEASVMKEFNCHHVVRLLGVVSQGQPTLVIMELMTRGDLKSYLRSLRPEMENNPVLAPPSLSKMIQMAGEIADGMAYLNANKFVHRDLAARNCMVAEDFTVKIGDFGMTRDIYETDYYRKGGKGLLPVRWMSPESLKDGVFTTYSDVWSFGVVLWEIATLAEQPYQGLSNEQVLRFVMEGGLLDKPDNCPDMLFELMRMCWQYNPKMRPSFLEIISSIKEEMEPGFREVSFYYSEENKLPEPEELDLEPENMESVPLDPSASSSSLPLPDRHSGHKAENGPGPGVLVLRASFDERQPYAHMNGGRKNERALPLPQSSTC
SMILES,target or system,assay,test system,setting,scale,endpoint,result
C[C@H]1CN(c2n[nH]c3nc(N[C@H]4CC[C@H](NS(=O)(=O)CCC(F)(F)F)CC4)ncc23)CCO1,"Insulin-like growth factor 1 receptor (IGF1R, Homo sapiens, UniProt P08069)","inhibitor, Kinobeads competition profiling",,0.032 µM,baseline: vehicle,relative abundance,0.97
CC(C)C[C@@H]1NC(=O)[C@H](CC(C)C)NC(=O)[C@H](Cc2c[nH]c3ccccc23)NC(=O)[C@H](CO)NC(=O)[C@H](Cc2c[nH]c3ccccc23)NC(=O)[C@@H]2CCCN2C(=O)[C@H](CC(C)C)NC(=O)[C@H](Cc2c[nH]cn2)NC(=O)[C@@H]2CCCN2C(=O)[C@H](CC(N)=O)NC(=O)[C@H](C)NC(=O)[C@H](Cc2ccc(O)cc2)NC(=O)[C@H](CS)NC(=O)[C@H](CCCCNC(=O)CN2CCN(CC(=O)O)CCN(CC(=O)O)CCN(CC(=O)O)CC2)NC1=O [lutetium-177 labelled],,,"Balb/c mouse, female, 4T1 tumour, intestine","intravenous, 3.7 MBq, 4 h",,tissue uptake,2.18 ± 0.72 %ID
CC(C)C[C@H](NC(=O)C[C@H](O)[C@H](CC(C)C)NC(=O)[C@H](Cc1c[nH]cn1)NC(=O)CNC(=O)[C@@H](NC(=O)[C@H](C)NC(=O)[C@H](Cc1c[nH]c2ccccc12)NC(=O)[C@H](CCC(N)=O)NC(=O)[C@@H](Cc1ccccc1)NC(=O)CCNC(=O)CCSc1nnc(NCCC(=O)NCCC(=O)NCCCC[C@H](NC(=O)N[C@@H](CCC(=O)O)C(=O)O)C(=O)O)c2c1CCC1C(CC2)C1COC(=O)NCCNC(=O)CC[C@H](C(=O)O)N1CCN(CC(=O)O)CCN(CC(=O)O)CC1)C(C)C)C(N)=O (stereo partly drawn) [gallium-68 labelled],,,"athymic NMRI nude mouse, blood","intravenous, dose not given, 2 h, together with: bombesin 480 nmol (GRPR blocking)",,tissue uptake,0.43 %ID/g
N=C(N)NCCC[C@@H]1NC(=O)[C@H](CCCCNC(=O)c2ccc(CNC34CNCCNCC(N)(CNCCNC3)CNCCNC4)cc2)NC(=O)[C@@H](Cc2ccc(O)cc2)NC(=O)[C@H](CC(=O)O)NC(=O)CNC1=O [copper-64 labelled],,ex vivo biodistribution,"male athymic nude mouse, PC-3 tumour, spleen","7.4 MBq, 48 h",,tissue uptake,1.93 ± 0.33 %ID/g
C[C@@H](O)[C@@H](CO)NC(=O)[C@@H](CCCNC(=N)N)NC(=O)[C@@H]1CCCN1C(=O)[C@@H]1CSSC[C@H](NC(=O)[C@H](Cc2ccccc2)NC(=O)CN2CCN(CC(=O)O)CCN(CC(=O)O)CCN(CC(=O)O)CC2)C(=O)N[C@@H](Cc2ccc(O)cc2)C(=O)N[C@@H](Cc2ccccc2)C(=O)N[C@@H](CCC(N)=O)C(=O)N[C@@H](CC(N)=O)C(=O)N1 [gallium-68 labelled],,,"Wistar rat, spleen","intravenous, 8 MBq, 60 min, group mean",,tissue uptake,0.24 %ID/g
CCCCCCCCCC(=O)N[C@@H](Cc1c[nH]c2ccccc12)C(=O)N[C@H](CC(N)=O)C(=O)N[C@@H](CC(=O)O)C(=O)N[C@@H]1C(=O)NCC(=O)N[C@@H](CCCNC(=O)CCC(=O)N2Cc3ccccc3-c3c(nnn3CCC[C@H](NC(=O)CCCCC[N+]3=C(C=CC4=CC(=CC=C5N(C)c6ccccc6C5(C)C)CCC4)C(C)(C)c4ccccc43)C(=O)NCCCCNC(=O)OC(C)(C)C)-c3ccccc32)C(=O)N[C@@H](CC(=O)O)C(=O)N[C@H](C)C(=O)N[C@@H](CC(=O)O)C(=O)NCC(=O)N[C@H](CO)C(=O)N[C@@H]([C@H](C)CC(=O)O)C(=O)N[C@@H](CC(=O)c2ccccc2N)C(=O)O[C@@H]1C,,,human plasma,"1 µM, up to 240 min, pH 7.4, 37 °C",,half-life,> 4 h
O=C(O)C[C@H](NC(=O)[C@H](CC(=O)O)NC(=O)[C@H](CC(=O)O)NC(=O)[C@H](CC(=O)O)NC(=O)[C@H](CC(=O)O)NC(=O)[C@H](CC(=O)O)NC(=O)[C@H](CC(=O)O)NC(=O)[C@H](CC(=O)O)NC(=O)[C@H](CC(=O)O)NC(=O)[C@H](CC(=O)O)NC(=O)[C@H](CC(=O)O)NC(=O)[C@H](CCCCNC(=O)c1ccc(C(=O)NCCOCCOB2BBBBBB3BBBB3B2)cc1)NC(=O)CN1CCN(CC(=O)O)CCN(CC(=O)O)CCN(CC(=O)O)CC1)C(=O)O [gallium-67 labelled],,gamma counting,"ddY mouse, male, 6 weeks old, heart","intravenous, 37 kBq, 10 min",,tissue uptake,2.51 %ID/g
CC[C@H](C)[C@@H]([C@@H](CC(=O)N1CCC[C@H]1[C@H](OC)[C@@H](C)C(=O)N[C@H](C)[C@@H](O)c1ccccc1)OC)N(C)C(=O)[C@@H](NC(=O)[C@H](C(C)C)N(C)C(=O)OCc1ccc(NC(=O)[C@H](C)NC(=O)[C@@H](NC(=O)CCCCCN2C(=O)CC(SC[C@H](NC(=O)[C@H](CC(=O)O)NC(=O)[C@H](CCCNC(=N)N)NC(=O)[C@H](CC(=O)O)NC(=O)CCCCn3cc(CCCC(=O)Nc4nnc(S(N)(=O)=O)s4)nn3)C(=O)O)C2=O)C(C)C)cc1)C(C)C (stereo partly drawn),,"LC-MS, refers to: intact conjugate",mouse serum,"100 µg/mL, 37 °C",,half-life,23 h
CC[C@H](C)[C@H](NC(=O)[C@H](Cc1ccccc1)NC(=O)[C@H](CCC(=O)O)NC(=O)[C@H](CCCNC(=N)N)NC(=O)[C@H](C)NC(=O)[C@H](C)NC(=O)[C@H](CCC(N)=O)NC(=O)[C@H](CCC(=O)O)NC(=O)[C@H](CCC(=O)O)NC(=O)[C@H](CC(C)C)NC(=O)[C@H](Cc1ccc(O)cc1)NC(=O)[C@H](CO)NC(=O)[C@H](CO)NC(=O)[C@@H](NC(=O)[C@H](CC(=O)O)NC(=O)[C@H](CO)NC(=O)[C@@H](NC(=O)[C@H](Cc1ccccc1)NC(=O)[C@@H](NC(=O)CNC(=O)[C@H](CCC(=O)O)NC(=O)[C@H](C)NC(=O)CCc1c[nH]cn1)[C@@H](C)O)[C@@H](C)O)C(C)C)C(=O)N[C@@H](C)C(=O)N[C@@H](Cc1c[nH]c2ccccc12)C(=O)N[C@@H](CC(C)C)C(=O)N[C@H](C(=O)N[C@@H](CCCNC(=N)N)C(=O)NCC(=O)N[C@@H](CCCNC(=N)N)C(=O)N[C@@H](CCCCNC(=O)COCCOCCNC(=O)COCCOCCNC(=O)CC[C@H](NC(=O)CCCCCCCCCCCCCCCCC(=O)O)C(=O)O)C(=O)NCC(=O)NCC(=O)N[C@@H](CO)C(=O)N[C@@H](CCCCNc1c(NCCCCCN(O)C(=O)CCC(=O)NCCCCCN(O)C(=O)CCC(=O)NCCCCCN(O)C(C)=O)c(=O)c1=O)C(=O)O)C(C)C [zirconium-89 labelled],,,"rat, stomach","iv, 3 nmol/kg, 4 h, ex vivo",,tissue uptake,0.34 %ID/g
